# Measured values of several laboratories.
# Protocols differ between the studies behind these lines. Numbers after ± are the reported error.
# Sequence of UniProt P41143 (whole entry, looked up): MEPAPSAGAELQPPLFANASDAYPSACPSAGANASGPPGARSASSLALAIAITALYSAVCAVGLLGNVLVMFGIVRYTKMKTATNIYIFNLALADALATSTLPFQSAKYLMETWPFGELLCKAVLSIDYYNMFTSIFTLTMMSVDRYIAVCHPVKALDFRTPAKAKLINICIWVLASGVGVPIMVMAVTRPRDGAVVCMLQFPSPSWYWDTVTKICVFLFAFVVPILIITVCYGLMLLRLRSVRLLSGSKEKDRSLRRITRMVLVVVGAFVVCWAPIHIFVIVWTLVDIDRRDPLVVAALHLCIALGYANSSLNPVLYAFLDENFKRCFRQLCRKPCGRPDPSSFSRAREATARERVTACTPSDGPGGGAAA
# Sequence of UniProt P41145 (whole entry, looked up): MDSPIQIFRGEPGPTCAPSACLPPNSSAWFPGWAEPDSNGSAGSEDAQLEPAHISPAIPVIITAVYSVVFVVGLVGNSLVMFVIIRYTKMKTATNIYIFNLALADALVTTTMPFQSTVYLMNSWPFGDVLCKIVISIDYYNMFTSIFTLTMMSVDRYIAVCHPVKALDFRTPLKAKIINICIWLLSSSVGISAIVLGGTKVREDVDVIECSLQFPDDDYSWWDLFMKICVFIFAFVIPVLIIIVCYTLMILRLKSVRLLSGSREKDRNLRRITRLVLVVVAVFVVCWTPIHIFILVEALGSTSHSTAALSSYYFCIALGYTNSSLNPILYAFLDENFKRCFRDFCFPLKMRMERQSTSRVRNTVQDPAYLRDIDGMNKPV
Structure (SMILES),tested on,test,system,setting,endpoint,value
Cc1cc(C)cc(S(=O)(=O)c2c(C(=O)NC3CC4(C3)CN(Cc3n[nH]c(=O)[nH]3)C4)[nH]c3ccc(Cl)cc23)c1,HIV-1,viral replication,"MT-4, K103N/Y181C mutant (RES056)",,EC50,7450 ± 2250 nM
Cc1cc(/C=C/C#N)cc(C)c1Nc1nc(Nc2ccc(C#N)cc2)ncc1N,HIV-1,"viral replication, single-round infection",RT mutant V106A/G190A/F227L,,EC50,1.4 ± 0.4 nM
CCCCCCCCCCCCCCCCCC(=O)N[C@@H](CCC(=O)NCCCC[C@H](NC(=O)[C@H](CCC(N)=O)NC(=O)[C@H](CCCCN)NC(=O)[C@H](CO)NC(=O)[C@H](CC(C)C)NC(=O)[C@H](CC(=O)O)NC(=O)[C@H](CO)NC(=O)[C@@H](NC(=O)[C@H](Cc1ccccc1)NC(=O)[C@@H](NC(=O)CNC(=O)[C@H](CCC(N)=O)NC(=O)[C@@H](CO)NC(=O)[C@@H](N)Cc1c[nH]cn1)[C@@H](C)O)[C@@H](C)O)C(=O)N[C@@H](CC(=O)O)C(=O)N[C@@H](CCC(=O)O)C(=O)N[C@@H](CCC(N)=O)C(=O)N[C@@H](CC(C)C)C(=O)N[C@@H](C)C(=O)N[C@@H](CCCCN)C(=O)N[C@@H](CC(=O)O)C(=O)N[C@@H](Cc1ccccc1)C(=O)N[C@H](C(=O)N[C@@H](CCC(=O)O)C(=O)N[C@@H](Cc1c[nH]c2ccccc12)C(=O)N[C@@H](CC(C)C)C(=O)N[C@@H](CCCCN)C(=O)N[C@@H](C)C(=O)NCC(=O)NCC(=O)N1CCC[C@H]1C(=O)N[C@@H](CO)C(=O)N[C@@H](CO)C(=O)NCC(=O)N[C@@H](C)C(=O)N1CCC[C@H]1C(=O)N1CCC[C@H]1C(=O)N1CCC[C@H]1C(=O)N[C@@H](CO)C(N)=O)[C@@H](C)CC)C(=O)O,,,"obese diabetic cynomolgus monkey, serum","dose not given, day 43",AST,29.7 ± 3.6 U/L
CC(C)N1CCn2cc(C(=O)NCc3ccc(F)cc3F)c(=O)c(O)c2C1=O,HIV-1,"viral replication, single-round vector infection",IN E138K/G140S/Q148H,,EC50,92.3 ± 3.3 nM
Cc1cccc(-c2cc(C#N)cc(Oc3c(C(F)(F)F)ccn(Cc4n[nH]c(=O)n4C)c3=O)c2)c1,HIV-1,viral cytopathicity,"MT4, Y181C mutant",,EC50,58 ± 21 nM
Cc1cc(C)cc(S(=O)(=O)c2c(C(N)=O)[nH]c3ccc(Cl)cc23)c1,HIV-1,viral replication,"MT-4, K103N/Y181C mutant (RES056)",,EC50,1800 ± 290 nM
Cc1cc(/C=C/C#N)cc(C)c1-n1cnc2cnc(Nc3ccc(C#N)cc3)nc21,HIV-1,"viral replication, single-round infection",RT mutant V106A/F227L/L234I,,EC50,0.7 ± 0.3 nM
COc1cc(F)c(C(=O)c2ccnc(Nc3ccc(C#N)cc3)n2)c(F)c1,HIV-1,viral replication,"MT4, RT Y181C mutant",,EC50,481 nM
O=C(NCc1ccc(F)cc1F)c1cc2cccnc2n(O)c1=O,HIV-1,viral replication,"infected cells, integrase G140S/Q148H mutant",,EC50,438 ± 121 nM
CC[C@H](C)[C@@H]1NC(=O)[C@H](CC(C)C)NC(=O)[C@@](C)(NC(=O)[C@H](Cc2ccccc2)NC(=O)[C@H](Cc2ccc(O)cc2)NC(=O)[C@H](C)NC(=O)[C@@H](N)[C@@H](C)O)CCCC=CCCC[C@@](C)(C(=O)NCC(=O)N[C@@H](CCCNC(=N)N)C(=O)N[C@@H](Cc2c[nH]c3ccccc23)C(N)=O)NC(=O)[C@H](CC(C)C)NC1=O,HIV-1,,,,EC50,5000 ± 2000 nM
CC(C)C[C@H](NC(=O)[C@H](CO[C@@H]1O[C@H](CO)[C@@H](O)[C@H](O)[C@H]1O)NC(=O)[C@H](CCCCN)NC(=O)[C@H](CC(C)C)NC(=O)C(C)(C)NC(=O)[C@H](CCCCN)NC(=O)[C@H](CCC(=O)O)NC(=O)C(C)(C)NC(=O)[C@H](CC(C)C)NC(=O)[C@H](CC(N)=O)NC(=O)[C@@H]1CCCN1C(=O)[C@H](CC(C)C)NC(=O)[C@H](Cc1ccccc1)NC(=O)CNC(=O)[C@H](NC(=O)[C@@H](N)Cc1ccc(O)cc1)[C@H](C)O)C(N)=O,"Kappa-type opioid receptor (OPRK1, Homo sapiens, UniProt P41145)","ligand displacement, radioligand",,"pH 7.5, cell membranes",Ki,6.9 nM
CCCCCCCCCCCCCCCC(=O)N[C@@H](CCC(=O)NCCOCCOCCC(=O)NCCOCCOCCC(=O)NCCCC[C@H](NC(=O)[C@H](CC(=O)O)NC(=O)[C@H](CC(C)C)NC(=O)[C@H](Cc1ccc(O)cc1)NC(=O)[C@H](CCCCN)NC(=O)[C@H](CO)NC(=O)[C@H](Cc1ccc(O)cc1)NC(=O)[C@H](CC(=O)O)NC(=O)[C@H](CO)NC(=O)[C@@H](NC(=O)[C@H](Cc1ccccc1)NC(=O)[C@@H](NC(=O)CNC(=O)[C@H](CCC(N)=O)NC(=O)[C@@H](CO)NC(=O)[C@@H](N)Cc1c[nH]cn1)[C@@H](C)O)[C@@H](C)O)C(=O)N[C@@H](CCCNC(=N)N)C(=O)N[C@@H](CCCNC(=N)N)C(=O)N[C@@H](C)C(=O)N[C@@H](CCC(N)=O)C(=O)N[C@@H](CC(=O)O)C(=O)N[C@@H](Cc1ccccc1)C(=O)N[C@H](C(=O)N[C@@H](CCC(N)=O)C(=O)N[C@@H](Cc1c[nH]c2ccccc12)C(=O)N[C@@H](CC(C)C)C(=O)N[C@@H](CC(C)C)C(=O)N[C@@H](CC(N)=O)C(=O)N[C@H](C(=O)NCC(=O)NCC(=O)N1CCC[C@H]1C(=O)N[C@@H](CO)C(=O)N[C@@H](CO)C(=O)NCC(=O)N[C@@H](C)C(=O)N1CCC[C@H]1C(=O)N1CCC[C@H]1C(=O)N1CCC[C@H]1C(=O)N[C@@H](CO)C(N)=O)[C@@H](C)O)C(C)C)C(=O)O,,,"rhesus monkey, plasma","subcutaneous, 5 µg/kg, single dose",half-life,3.33 h
CC(C)n1ccn2cc(C(=O)NCc3ccc(F)cc3F)c(=O)c(O)c2c1=O,HIV-1,"viral replication, single-round vector infection",IN E138K/G140S/Q148H,,EC50,207 ± 5.5 nM
CC(C)C[C@H](NC(=O)[C@H](CO[C@@H]1O[C@H](CO)[C@@H](O)[C@H](O)[C@H]1O)NC(=O)[C@H](CCCCN)NC(=O)[C@H](CC(C)C)NC(=O)[C@H](C)NC(=O)[C@H](CCCCN)NC(=O)[C@H](CCC(=O)O)NC(=O)[C@H](C)NC(=O)[C@H](CC(C)C)NC(=O)[C@H](CC(N)=O)NC(=O)[C@@H]1CCCN1C(=O)[C@H](CC(C)C)NC(=O)[C@H](Cc1ccccc1)NC(=O)CNC(=O)[C@H](NC(=O)[C@@H](N)Cc1ccc(O)cc1)[C@H](C)O)C(N)=O,"Delta-type opioid receptor (OPRD1, Homo sapiens, UniProt P41143)","ligand displacement, radioligand",,"pH 7.5, cell membranes",Ki,7.9 nM
N#Cc1ccc(Nc2nccc(C(=O)c3c(F)cc(F)cc3F)n2)cc1,HIV-1,viral replication,"MT4, RT Y181C mutant",,EC50,6660 nM
O=C(NCc1ccc(F)cc1F)c1c(O)c2cccnc2n(O)c1=O,HIV-1,viral replication,"infected cells, integrase Y143R mutant",,EC50,11 ± 2 nM

# For quick reference, copied from above:
Structure (SMILES),tested on,test,system,setting,endpoint,value
CC(C)N1CCn2cc(C(=O)NCc3ccc(F)cc3F)c(=O)c(O)c2C1=O,HIV-1,"viral replication, single-round vector infection",IN E138K/G140S/Q148H,,EC50,92.3 ± 3.3 nM
